# Measured values of several laboratories.
# A part holds a random share of what one study measured. Several values in a cell are separate wells, animals, samples, runs or records.
# UniProt P48729, sequence (whole entry, looked up): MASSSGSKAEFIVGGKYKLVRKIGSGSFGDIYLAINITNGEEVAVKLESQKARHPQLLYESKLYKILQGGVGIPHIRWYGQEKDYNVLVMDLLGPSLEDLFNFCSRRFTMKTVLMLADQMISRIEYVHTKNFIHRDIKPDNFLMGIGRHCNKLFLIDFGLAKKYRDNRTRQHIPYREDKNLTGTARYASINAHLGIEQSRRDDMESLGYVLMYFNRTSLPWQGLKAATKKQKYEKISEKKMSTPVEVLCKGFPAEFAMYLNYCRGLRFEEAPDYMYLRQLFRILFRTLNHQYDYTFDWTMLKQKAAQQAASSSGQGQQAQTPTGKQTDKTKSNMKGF
# UniProt Q13422, sequence (whole entry, looked up): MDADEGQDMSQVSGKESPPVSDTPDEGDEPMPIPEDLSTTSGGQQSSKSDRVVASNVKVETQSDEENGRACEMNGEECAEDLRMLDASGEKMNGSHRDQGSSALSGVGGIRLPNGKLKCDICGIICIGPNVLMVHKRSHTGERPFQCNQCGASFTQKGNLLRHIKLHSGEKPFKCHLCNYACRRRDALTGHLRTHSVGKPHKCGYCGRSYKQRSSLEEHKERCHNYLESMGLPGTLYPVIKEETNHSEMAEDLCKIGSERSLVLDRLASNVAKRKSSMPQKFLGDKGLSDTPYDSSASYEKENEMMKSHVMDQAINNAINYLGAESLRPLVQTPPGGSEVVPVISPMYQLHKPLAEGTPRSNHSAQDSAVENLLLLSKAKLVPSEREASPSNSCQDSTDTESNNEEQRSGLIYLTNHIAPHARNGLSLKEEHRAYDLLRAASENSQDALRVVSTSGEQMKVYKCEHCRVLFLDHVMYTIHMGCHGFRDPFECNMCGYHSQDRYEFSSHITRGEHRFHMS

# Set 1
# Target: Cyclin-dependent kinase 12, with cyclin K (CDK12, Homo sapiens, UniProt Q9NYV4)
# UniProt Q9NYV4, sequence (whole entry, looked up): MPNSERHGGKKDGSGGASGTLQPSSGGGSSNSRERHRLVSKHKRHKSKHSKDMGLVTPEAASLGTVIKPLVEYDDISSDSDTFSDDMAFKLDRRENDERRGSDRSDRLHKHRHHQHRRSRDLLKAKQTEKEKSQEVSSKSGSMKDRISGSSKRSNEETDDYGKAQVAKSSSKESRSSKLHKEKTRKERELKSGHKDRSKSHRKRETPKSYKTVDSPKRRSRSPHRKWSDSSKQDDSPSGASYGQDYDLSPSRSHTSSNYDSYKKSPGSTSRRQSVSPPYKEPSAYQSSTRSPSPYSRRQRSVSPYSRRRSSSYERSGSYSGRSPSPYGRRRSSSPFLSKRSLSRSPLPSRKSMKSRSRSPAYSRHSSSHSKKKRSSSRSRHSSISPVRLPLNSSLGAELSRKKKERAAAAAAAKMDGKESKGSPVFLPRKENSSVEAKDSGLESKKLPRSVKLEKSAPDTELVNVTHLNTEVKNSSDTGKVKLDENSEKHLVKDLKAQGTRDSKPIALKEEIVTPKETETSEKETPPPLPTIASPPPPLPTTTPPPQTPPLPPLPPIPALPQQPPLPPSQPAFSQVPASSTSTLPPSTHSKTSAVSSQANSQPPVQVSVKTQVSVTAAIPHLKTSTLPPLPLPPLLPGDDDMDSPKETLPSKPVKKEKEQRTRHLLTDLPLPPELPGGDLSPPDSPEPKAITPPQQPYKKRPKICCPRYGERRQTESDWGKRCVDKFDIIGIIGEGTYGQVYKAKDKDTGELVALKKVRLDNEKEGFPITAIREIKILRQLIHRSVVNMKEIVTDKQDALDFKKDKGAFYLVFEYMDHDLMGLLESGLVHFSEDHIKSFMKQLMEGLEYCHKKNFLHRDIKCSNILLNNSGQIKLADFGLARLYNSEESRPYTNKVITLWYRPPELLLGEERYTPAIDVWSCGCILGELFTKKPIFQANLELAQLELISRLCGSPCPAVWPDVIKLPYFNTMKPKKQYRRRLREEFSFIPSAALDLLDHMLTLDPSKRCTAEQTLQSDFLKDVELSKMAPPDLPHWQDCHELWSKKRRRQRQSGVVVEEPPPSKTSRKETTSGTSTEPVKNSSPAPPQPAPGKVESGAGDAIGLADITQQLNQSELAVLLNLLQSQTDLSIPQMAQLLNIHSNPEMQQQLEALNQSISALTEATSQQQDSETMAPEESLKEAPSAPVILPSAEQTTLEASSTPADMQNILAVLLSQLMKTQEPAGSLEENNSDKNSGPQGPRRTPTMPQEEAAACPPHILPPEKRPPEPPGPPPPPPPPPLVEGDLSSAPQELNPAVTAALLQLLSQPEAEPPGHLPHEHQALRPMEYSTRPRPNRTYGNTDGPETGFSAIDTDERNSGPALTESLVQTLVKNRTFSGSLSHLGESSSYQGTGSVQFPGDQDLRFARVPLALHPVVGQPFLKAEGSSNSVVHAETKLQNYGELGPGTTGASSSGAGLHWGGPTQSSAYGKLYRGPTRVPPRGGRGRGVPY
# Effect on: kinase activity
# Action: inhibitor
# Technique: ADP-Glo
# Concentration: 0.6667 µM
Compound,inhibition
CCn1cnc2c(NCc3nc4cc(Cl)c(Cl)cc4[nH]3)nc(N3CCN(C(=O)CNC(C)=O)CC3)nc21,84.8%
CCn1cnc2c(NCc3nc4cc(Cl)c(Cl)cc4[nH]3)nc(N3CCN(c4ccccn4)CC3)nc21,71.9%
CCn1cnc2c(NCc3nc4cc(Cl)c(Cl)cc4[nH]3)nc(N3CCN(C(=O)c4ccncc4)CC3)nc21,84.9%
CCn1cnc2c(NCc3nc4cc(Cl)c(Cl)cc4[nH]3)nc(N3CCC(NC(C)=O)CC3)nc21,77.3%
CC(=O)N1CCN(c2nc(NCc3nc4cc(Cl)c(Cl)cc4[nH]3)c3ncn(C)c3n2)CC1,56%
CCn1cnc2c(NCc3nc4cc(Cl)c(Cl)cc4[nH]3)nc(N3CCn4ncnc4C3)nc21,88%
CCn1cnc2c(NCc3nc4cc(Cl)c(Cl)cc4[nH]3)nc(N3CCN(C(=O)[C@H](C)NC(C)=O)CC3)nc21,67.3%
CCn1cnc2c(NCc3nc4cc(Cl)c(Cl)cc4[nH]3)nc(N3CCN(S(C)(=O)=O)CC3)nc21,82.1%

# Set 2
# Structure (SMILES): Cn1cc(-c2cccc(CN3CCC4(CC3)COc3c4ccc4c3CN([C@@H]3CCC(=O)NC3=O)C4=O)c2)cn1
# Action: degrader
# Technique: HiBiT
# Cell line: HEK293
# Zinc finger protein Aiolos: Zinc finger protein Aiolos (Homo sapiens, UniProt Q9UKT9)
# UniProt Q9UKT9, sequence (whole entry, looked up): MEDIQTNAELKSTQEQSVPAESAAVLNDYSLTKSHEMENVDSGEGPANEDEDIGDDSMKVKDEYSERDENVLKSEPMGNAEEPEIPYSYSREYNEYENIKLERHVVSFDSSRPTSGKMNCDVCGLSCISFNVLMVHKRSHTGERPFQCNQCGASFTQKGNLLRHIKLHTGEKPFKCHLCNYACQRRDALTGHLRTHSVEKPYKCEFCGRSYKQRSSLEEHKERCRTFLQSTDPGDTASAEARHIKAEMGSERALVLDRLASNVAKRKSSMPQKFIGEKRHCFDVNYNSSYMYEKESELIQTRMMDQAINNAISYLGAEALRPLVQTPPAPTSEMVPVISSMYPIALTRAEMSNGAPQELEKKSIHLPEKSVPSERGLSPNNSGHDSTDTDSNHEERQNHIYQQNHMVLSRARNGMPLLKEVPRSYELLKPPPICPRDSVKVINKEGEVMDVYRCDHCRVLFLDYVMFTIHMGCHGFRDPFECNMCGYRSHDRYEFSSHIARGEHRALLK
# GSPT1: Eukaryotic peptide chain release factor GTP-binding subunit ERF3A (GSPT1, Homo sapiens, UniProt P15170)
# UniProt P15170, sequence (whole entry, looked up): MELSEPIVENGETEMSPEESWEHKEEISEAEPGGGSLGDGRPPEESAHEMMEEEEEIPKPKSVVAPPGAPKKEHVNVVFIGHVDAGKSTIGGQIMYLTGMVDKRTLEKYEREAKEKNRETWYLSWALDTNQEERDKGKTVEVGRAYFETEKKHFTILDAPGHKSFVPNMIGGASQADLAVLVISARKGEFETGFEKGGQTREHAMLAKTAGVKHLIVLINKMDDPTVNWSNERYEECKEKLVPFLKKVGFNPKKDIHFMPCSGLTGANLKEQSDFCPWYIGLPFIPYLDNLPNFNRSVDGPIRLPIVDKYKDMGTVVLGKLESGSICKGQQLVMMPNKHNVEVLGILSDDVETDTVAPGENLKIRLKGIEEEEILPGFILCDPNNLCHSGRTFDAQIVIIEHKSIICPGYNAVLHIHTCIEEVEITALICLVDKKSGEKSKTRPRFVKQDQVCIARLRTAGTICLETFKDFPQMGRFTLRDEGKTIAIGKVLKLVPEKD
# SALL4: Sal-like protein 4 (SALL4, Homo sapiens, UniProt Q9UJQ4)
# UniProt Q9UJQ4, sequence (whole entry, looked up): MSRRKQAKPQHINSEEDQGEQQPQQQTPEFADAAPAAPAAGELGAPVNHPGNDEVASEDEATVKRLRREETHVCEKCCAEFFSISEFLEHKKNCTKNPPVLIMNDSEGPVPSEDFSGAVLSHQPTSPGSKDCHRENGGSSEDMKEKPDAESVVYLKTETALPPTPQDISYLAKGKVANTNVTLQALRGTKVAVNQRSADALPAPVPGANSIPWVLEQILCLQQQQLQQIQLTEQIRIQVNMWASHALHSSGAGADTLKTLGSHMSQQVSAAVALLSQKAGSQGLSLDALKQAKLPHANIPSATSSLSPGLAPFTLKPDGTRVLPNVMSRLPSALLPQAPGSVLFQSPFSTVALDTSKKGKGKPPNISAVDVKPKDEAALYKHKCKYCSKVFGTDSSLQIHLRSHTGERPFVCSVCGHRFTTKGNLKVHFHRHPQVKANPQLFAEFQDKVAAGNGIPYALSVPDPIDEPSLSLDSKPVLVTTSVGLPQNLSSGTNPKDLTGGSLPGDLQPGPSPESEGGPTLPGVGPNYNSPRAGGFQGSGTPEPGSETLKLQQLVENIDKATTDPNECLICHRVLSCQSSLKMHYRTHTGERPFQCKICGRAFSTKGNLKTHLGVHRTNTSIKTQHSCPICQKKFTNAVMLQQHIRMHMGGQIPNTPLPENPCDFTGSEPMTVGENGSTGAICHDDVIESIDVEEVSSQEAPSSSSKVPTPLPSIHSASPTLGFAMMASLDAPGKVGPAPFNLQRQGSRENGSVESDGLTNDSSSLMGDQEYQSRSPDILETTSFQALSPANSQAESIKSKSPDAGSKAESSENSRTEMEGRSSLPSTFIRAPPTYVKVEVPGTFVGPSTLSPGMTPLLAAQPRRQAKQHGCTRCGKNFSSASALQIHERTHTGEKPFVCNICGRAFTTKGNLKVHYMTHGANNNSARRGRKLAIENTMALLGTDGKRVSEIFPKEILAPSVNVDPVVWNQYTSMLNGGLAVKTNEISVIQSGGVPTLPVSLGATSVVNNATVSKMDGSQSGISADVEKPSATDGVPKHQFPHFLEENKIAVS
target,setting,remaining protein
Zinc finger protein Aiolos,0.1694 nM,98.1% and 98.7%
"CSNK1A1 (Homo sapiens, UniProt P48729)",3333.33 nM,97.8% and 98.6%
GSPT1,4.572 nM,104% and 108%
SALL4,370.37 nM,73.8% and 83.2%
"DNA-binding protein Ikaros (Homo sapiens, UniProt Q13422)",0.1694 nM,109% and 96.2%
SALL4,4.572 nM,98.1% and 99.1%
GSPT1,10000 nM,87.7% and 101%
Zinc finger protein Aiolos,370.37 nM,95.4% and 103%

# Set 3
# SMILES: Cc1nc(C)c(C=[N+]([O-])C(C)(C)C)nc1C
# Technique: HPLC-ECD
# Host: MPTP mouse model
# Medium: striatum
setting,striatal DOPAC content
90 mg/kg,0.216 ng/mg tissue and 0.374 ng/mg tissue and 0.247 ng/mg tissue and 0.351 ng/mg tissue and 0.381 ng/mg tissue and 0.46 ng/mg tissue and 0.321 ng/mg tissue
30 mg/kg,0.234 ng/mg tissue and 0.253 ng/mg tissue and 0.196 ng/mg tissue and 0.353 ng/mg tissue and 0.397 ng/mg tissue and 0.23 ng/mg tissue
10 mg/kg,0.339 ng/mg tissue and 0.271 ng/mg tissue and 0.178 ng/mg tissue and 0.222 ng/mg tissue and 0.328 ng/mg tissue and 0.341 ng/mg tissue and 0.217 ng/mg tissue

# Mixed results
Structure (SMILES),assay,test system,setting,endpoint,result
CC(C)C[C@@H]1NC(=O)[C@@H](N(C)C(=O)[C@@H](NC(=O)[C@@H]2C[C@@H](F)CN2C(=O)C2(C(F)(F)F)CC(F)(F)C2)C2CC2)CCCCCCCN(C)C(=O)[C@H](Cc2cc(Cl)cnc2OC2CC2)N(C)C1=O,immunohistochemistry,"mice, sample A PDX, tumour","oral, 100 mg/kg three times daily for 4 d, 8 h after last dose",phospho-KNL1 positive cells,4% and 3.1% and 2.2%
